{"data": "Published values collected from several papers", "note": "Protocols differ between the studies behind these lines. ± marks the error that the study gave."}
{"SMILES": "CCCC[C@H](NC(=O)[C@@H](NC(=O)[C@H](CC(=O)O)NC(=O)[C@H](CCC(N)=O)NC(=O)[C@H](CC(C)C)NC(=O)[C@H](CC(C)C)NC(=O)[C@H](CCCN)NC(=O)[C@H](CCCNC(=N)N)NC(=O)[C@H](C)NC(=O)[C@H](CO)NC(=O)[C@H](CC(C)C)NC(=O)[C@H](CCC(N)=O)NC(=O)[C@H](CC)NC(=O)[C@H](CC(C)C)NC(=O)[C@@H](NC(=O)[C@H](CCCN)NC(=O)[C@H](CCCNC(=N)N)NC(=O)[C@H](Cc1ccc(O)cc1)NC(=O)[C@H](CO)NC(=O)[C@H](CCC(N)=O)NC(=O)[C@@H](NC(=O)[C@H](Cc1ccccc1)NC(=O)[C@@H](NC(=O)[C@H](C)NC(=O)[C@H](CC(=O)O)NC(=O)[C@@H](C)NC(=O)CCc1ccc(O)cc1)[C@@H](C)CC)[C@@H](C)O)C(C)C)[C@@H](C)CC)C(=O)N[C@@H](CC(=O)O)C(=O)N[C@@H](CCCNC(=N)N)C(=O)NC", "test": "GH release", "test system": "male rat, serum", "conditions": "subcutaneous, dose not given, 30 min", "how to read": "baseline: GHRH(1-29)NH2", "measurement": "relative potency", "value": 100}
{"SMILES": "C[C@H](NC(=O)COC(=O)[C@H](C)NC(=O)CO)C(=O)O", "test system": "water", "conditions": "pH 8, 50 °C", "measurement": "depolymerization rate constant", "value": "66.4 h⁻¹"}
{"SMILES": "CCCCCCCCCC(=O)NCCCC[C@@H](NC(=O)[C@@H](CC(C)C)NC(=O)[C@@H](CCCCN)NC(=O)[C@@H](CCCCNC(=O)[C@@H](CC(C)C)NC(=O)[C@@H](CCN)NC(=O)[C@@H](CCCCNC(=O)[C@@H](Cc1ccccc1)NC(=O)[C@H](N)CCCN)NC(=O)[C@@H](Cc1ccccc1)NC(=O)[C@H](N)CCCN)NC(=O)[C@@H](CC(C)C)NC(=O)[C@@H](CCN)NC(=O)[C@@H](CCCCNC(=O)[C@@H](Cc1ccccc1)NC(=O)[C@H](N)CCCN)NC(=O)[C@@H](Cc1ccccc1)NC(=O)[C@H](N)CCCN)C(N)=O", "test": "carboxyfluorescein release", "test system": "EYPG vesicles", "conditions": "10 µg/mL, 250 s, pH 7.4, 25 °C", "how to read": "baseline: Triton X-100", "measurement": "leakage", "value": "65%"}
{"SMILES": "CCCCSc1nnc(-c2cc([N+](=O)[O-])ccc2Cl)o1", "test": "nitric oxide scavenging", "measurement": "IC50", "value": "39.2 ± 2.2 µM"}
{"SMILES": "COc1ccc(C2CC(c3ccc(C)cc3)=Nc3ccccc3S2)cc1 (stereo not shown)", "test system": "Wistar rat, STZ-induced diabetes, serum", "conditions": "10 mg/kg, 28 days", "measurement": "total cholesterol", "value": "148 mg/dL"}
{"SMILES": "COc1ccc2c(c1OC)C(C(Cl)(Cl)Cl)N1CCc3cc4c(cc3C1=C2)OCO4 (stereo not shown)", "test system": "rat, STZ-induced diabetic, serum", "conditions": "oral, 12 mg/kg, day 28", "measurement": "ALP activity", "value": "139 ± 3.97 U/L"}
{"SMILES": "N[C@@H](Cc1c[nH]cn1)C(=O)N1CCC[C@H]1C(=O)NCC(=O)NCC(=O)O", "test": "diketopiperazine formation, Arrhenius plot, ESI-MS", "test system": "1-propanol", "conditions": "70, 80, 90 °C, 0.5% acetic acid", "measurement": "activation energy", "value": "20.6 ± 0.717 kcal/mol"}
{"SMILES": "C=C(c1ncc(C(=O)O)cn1)c1cc2c(cc1C)C(C)(C)CCC2(C)C", "test": "RNA sequencing, refers to: Cyp26b1 mRNA", "test system": "rat, brain", "conditions": "dose not given, 24 h, single dose", "how to read": "baseline: vehicle", "measurement": "log2 fold change", "value": -0.28}
{"SMILES": "CCCC[C@H](NC(=O)[C@@H](NC(=O)[C@H](CC(=O)O)NC(=O)[C@H](CCC(N)=O)NC(=O)[C@H](CC(C)C)NC(=O)[C@H](CC(C)C)NC(=O)[C@H](CCCN)NC(=O)[C@H](CCCNC(=N)N)NC(=O)[C@H](C)NC(=O)[C@H](CO)NC(=O)[C@H](CC(C)C)NC(=O)[C@H](CCC(N)=O)NC(=O)[C@H](CC)NC(=O)[C@H](CC(C)C)NC(=O)[C@@H](NC(=O)[C@H](CCCN)NC(=O)[C@H](CCCNC(=N)N)NC(=O)[C@H](Cc1ccc(O)cc1)NC(=O)[C@H](CO)NC(=O)[C@H](CCC(N)=O)NC(=O)[C@@H](NC(=O)[C@H](Cc1ccccc1)NC(=O)[C@@H](NC(=O)[C@H](C)NC(=O)[C@H](CC(=O)O)NC(=O)[C@@H](C)NC(=O)[C@H](Cc1ccc(O)cc1)NC)[C@@H](C)CC)[C@@H](C)O)C(C)C)[C@@H](C)CC)C(=O)N[C@@H](CC(=O)O)C(=O)N[C@@H](CCCNC(=N)N)C(=O)NCC", "test": "GH release", "test system": "male rat, serum", "conditions": "subcutaneous, dose not given, 15 min", "how to read": "baseline: GHRH(1-29)NH2", "measurement": "relative potency", "value": 72.6}
{"SMILES": "CCCCC1NC(=O)c2ccccc21 (racemic)", "test": "thrombosis", "test system": "mouse, carrageenan-induced thrombosis", "conditions": "oral, 20 mg/kg daily for 2 days, 48 h after carrageenan", "measurement": "black tail length", "value": "3.9 ± 1.1 cm"}
{"SMILES": "N#Cc1cnc2cc(OCC3CCNCC3)c(F)cc2c1Nc1cc(F)c(OCc2cccc(Cl)n2)cc1Cl", "test system": "C57BL/6J mice, partial hepatectomy, resected liver", "conditions": "dose not given, 70% partial hepatectomy, pretreatment", "measurement": "MOB1 phosphorylation", "value": "decreased"}
{"SMILES": "O=C1/C(=C/c2ccc(O)cc2)Oc2c1c(O)cc(O)c2-c1ccc(O)c(O)c1", "test": "ABTS scavenging, absorbance", "measurement": "EC50", "value": "1080 µM"}
{"SMILES": "CCCC[C@H](NC(=O)[C@@H](NC(=O)[C@H](CC(=O)O)NC(=O)[C@H](CCC(N)=O)NC(=O)[C@H](CC(C)C)NC(=O)[C@H](CC(C)C)NC(=O)[C@H](CCCN)NC(=O)[C@H](CCCNC(=N)N)NC(=O)[C@H](C)NC(=O)[C@H](CO)NC(=O)[C@H](CC(C)C)NC(=O)[C@H](CCC(N)=O)NC(=O)[C@H](CC)NC(=O)[C@H](CC(C)C)NC(=O)[C@@H](NC(=O)[C@H](CCCN)NC(=O)[C@H](CCCNC(=N)N)NC(=O)[C@H](Cc1ccc(O)cc1)NC(=O)[C@H](CO)NC(=O)[C@H](CCC(N)=O)NC(=O)[C@@H](NC(=O)[C@H](Cc1ccccc1)NC(=O)[C@@H](NC(=O)[C@H](C)NC(=O)[C@H](CC(=O)O)NC(=O)[C@H](C)NC(=O)[C@H](Cc1ccc(O)cc1)NC)[C@@H](C)CC)[C@@H](C)O)C(C)C)[C@@H](C)CC)C(=O)N[C@@H](CC(=O)O)C(=O)NCCCCNC(=N)N", "test": "GH release", "test system": "rat, male, serum", "conditions": "intravenous, 1 µg/kg, 5 min", "how to read": "baseline: reference GHRH agonist JI-38", "measurement": "relative potency", "value": 1.17}
{"SMILES": "C[C@@H](O)[C@@H]1NC(=O)[C@H](CCCCN)NC(=O)[C@@H](Cc2ccc(NC(N)=O)cc2)NC(=O)[C@H](Cc2ccc(NC(=O)[C@@H]3CC(=O)NC(=O)N3)cc2)NC(=O)[C@H](NC(=O)[C@H](Cc2ccc(Cl)cc2)NC(=O)CN2CCN(CC(=O)O)CCN(CC(=O)O)CCN(CC(=O)O)CC2)CSSC[C@@H](C(=O)N[C@H](Cc2ccc(O)cc2)C(N)=O)NC1=O [gallium-68 labelled]", "test": "PET/CT", "test system": "neuroendocrine tumour patients, liver metastases", "conditions": "80 µg peptide mass", "measurement": "median SUVmax", "value": 18}
{"SMILES": "Cc1cc(O)c(C=O)c2c1C(=O)Oc1c(CO)c(O)c3c(c1O2)C(O)OC3=O (stereo not shown)", "test system": "rat, male, streptozotocin-induced diabetes, testis", "conditions": "oral, 10 mg/kg, 9 weeks", "measurement": "relative organ weight", "value": "0.93 ± 0.01 g"}
{"SMILES": "CC(=O)Nc1ccc(OC(=O)CCC(=O)[O][Pt-2]23([O]C(=O)CCC(=O)Oc4ccc(NC(C)=O)cc4)([NH2+][C@@H]4CCCC[C@H]4[NH2+]2)[O]C(=O)C(=O)[O]3)cc1", "test": "flow cytometry", "test system": "BALB/c mouse, 4T1 tumour model, spleen", "conditions": "dose not given", "how to read": "baseline: CD3+ cells", "measurement": "CD8+ T cells", "value": "9.32%"}
{"SMILES": "CC(=O)c1cnc(N)nc1N1CC[C@H]1c1nn2ccc(Cl)c2c(=O)n1-c1ccccc1", "test": "Th17 differentiation, refers to: IFNγ", "test system": "rheumatoid arthritis patient whole blood", "measurement": "IC50", "value": "0.066 µM"}
{"SMILES": "CCCC[C@H](NC(=O)[C@@H](NC(=O)[C@H](CC(=O)O)NC(=O)[C@H](CCC(N)=O)NC(=O)[C@H](CC(C)C)NC(=O)[C@H](CC(C)C)NC(=O)[C@H](CCCN)NC(=O)[C@H](CCCNC(=N)N)NC(=O)[C@H](C)NC(=O)[C@H](CO)NC(=O)[C@H](CC(C)C)NC(=O)[C@H](CCC(N)=O)NC(=O)[C@H](CC)NC(=O)[C@H](CC(C)C)NC(=O)[C@@H](NC(=O)[C@H](CCCN)NC(=O)[C@H](CCCNC(=N)N)NC(=O)[C@H](Cc1ccc(O)cc1)NC(=O)[C@H](CO)NC(=O)[C@H](CCC(N)=O)NC(=O)[C@@H](NC(=O)[C@H](Cc1ccccc1)NC(=O)[C@@H](NC(=O)[C@H](C)NC(=O)[C@H](CC(=O)O)NC(=O)[C@@H](C)NC(=O)[C@H](Cc1ccc(O)cc1)N(C)C(C)=O)[C@@H](C)CC)[C@@H](C)O)C(C)C)[C@@H](C)CC)C(=O)N[C@@H](CC(=O)O)C(=O)NCCCCNC(=N)N", "test": "GH release", "test system": "rat, male, serum", "conditions": "subcutaneous, 3 µg/kg, 30 min", "how to read": "baseline: reference GHRH agonist JI-38", "measurement": "relative potency", "value": 0.3}
{"SMILES": "CC(CCC(=O)NCc1ccc(C(=O)NO)cc1)C1CCC2C3C(O)CC4CC(O)CCC4(C)C3CCC12C (stereo not shown)", "test system": "PCK rats", "conditions": "oral gavage, 15 mg/kg/day, 5 months", "how to read": "baseline: untreated", "measurement": "liver to body weight ratio", "value": "decreased"}
{"SMILES": "COc1ccc2c(c1)c(CC(=O)OCC(=O)c1ccccc1)c(C)n2C(=O)c1ccc(Cl)cc1", "test": "hot plate test", "test system": "BALB/c mice", "conditions": "50 mg/kg, 120 min", "measurement": "latency of nociceptive response", "value": "14.8 ± 1.41 s"}
{"SMILES": "O=C1CC(c2ccc(O)cc2)Oc2c1c(O)cc1oc3cc(O)c(O)cc3c21 (racemic)", "test": "ABTS scavenging, absorbance", "measurement": "EC50", "value": "1190 µM"}
{"SMILES": "CCCC[C@H](NC(=O)[C@@H](NC(=O)[C@H](CC(=O)O)NC(=O)[C@H](CCC(N)=O)NC(=O)[C@H](CC(C)C)NC(=O)[C@H](CC(C)C)NC(=O)[C@H](CCCN)NC(=O)[C@H](CCCNC(=N)N)NC(=O)[C@H](C)NC(=O)[C@H](CO)NC(=O)[C@H](CC(C)C)NC(=O)[C@H](CCC(N)=O)NC(=O)[C@H](CC)NC(=O)[C@H](CC(C)C)NC(=O)[C@@H](NC(=O)[C@H](CCCN)NC(=O)[C@H](CCCNC(=N)N)NC(=O)[C@H](Cc1ccc(O)cc1)NC(=O)[C@H](CO)NC(=O)[C@H](CCC(N)=O)NC(=O)[C@@H](NC(=O)[C@H](Cc1ccccc1)NC(=O)[C@@H](NC(=O)[C@H](C)NC(=O)[C@H](CC(=O)O)NC(=O)[C@@H](C)NC(=O)[C@H](Cc1ccc(O)cc1)NC)[C@@H](C)CC)[C@@H](C)O)C(C)C)[C@@H](C)CC)C(=O)N[C@@H](CC(=O)O)C(=O)N[C@@H](CCCNC(=N)N)C(=O)NC", "test": "GH release", "test system": "rat, male, serum", "conditions": "subcutaneous, dose not given, 15 and 30 min", "how to read": "baseline: reference GHRH agonist JI-38", "measurement": "relative potency", "value": "3.6 to 4 fold"}
{"SMILES": "CNC(=O)N(C)c1ccc(C(=O)Nc2ccc(Cl)cc2C(=O)Nc2ccc(Cl)cn2)cc1", "test system": "human plasma", "measurement": "concentration doubling prothrombin time", "value": "2.5 ± 0.5 µM"}
{"SMILES": "CC/C=C\\C/C=C\\C/C=C\\C/C=C\\C/C=C\\CCCCOC(CC)C(=O)O (stereo not shown)", "test system": "APOE*3Leiden.CETP mice, high-fat/cholesterol diet", "conditions": "112 mg/kg/day, 20 weeks", "how to read": "baseline: control", "measurement": "hepatocellular hypertrophy change", "value": "-82%"}
{"SMILES": "COc1cc2c(cc1OC)CC(=O)N(C[C@H]1CCCN(CCOc3ccc(F)cc3)C1)CC2", "test system": "VTA dopamine neurons, stress-naive male mice", "conditions": "intraperitoneal, 10 mg/kg", "how to read": "baseline: baseline", "measurement": "burst firing (%SWB)", "value": "no effect"}
{"note": "Repeated from above:"}
{"SMILES": "N#Cc1cnc2cc(OCC3CCNCC3)c(F)cc2c1Nc1cc(F)c(OCc2cccc(Cl)n2)cc1Cl", "test system": "C57BL/6J mice, partial hepatectomy, resected liver", "conditions": "dose not given, 70% partial hepatectomy, pretreatment", "measurement": "MOB1 phosphorylation", "value": "decreased"}
{"SMILES": "O=C1/C(=C/c2ccc(O)cc2)Oc2c1c(O)cc(O)c2-c1ccc(O)c(O)c1", "test": "ABTS scavenging, absorbance", "measurement": "EC50", "value": "1080 µM"}
